Assay results gathered from unrelated publications.
Every numbered part comes from another study and shows a few of its results, in no order.

Series 1
Target: Fragile X messenger ribonucleoprotein 1, C-terminal low-complexity region (Fmr1, Mus musculus, UniProt P35922)
Method: RNA Bind-n-Seq
Form: RNA
Medium: in vitro
Concentration: 200 nM
Notes: whole 134-nt RNA, ends assumed
With: 150 mM KCl
Relative to: input library
Reading: higher = stronger binding
Sequence	log2 enrichment
GGGAGUUCUACAGUCCGACGAUCUGGCCCUGGUGGCAUGCGGGGAGGAAGAGGUGGCCUCAUGGAUCGUGGUGGUCCCGGUGGAAUGUUCAUAGGUGGCCGUGGUGGAGACAGUGGAAUUCUCGGGUGUCAAGG	0.0425
GGGAGUUCUACAGUCCGACGAUCAGUCCUGUGCUACACAUCGUAUGUACCGAAUCGGGAAAAAGGAAAAAGGAAAAAGGGGAAAGUAUUAUGUUACGCCGUUCGGAUCUGCACUGGAAUUCUCGGGUGUCAAGG	-0.302
GGGAGUUCUACAGUCCGACGAUCCCUCAAGUCCUGUGCUACACAUCGUAUGUACCGAAUCGGGUGGUGGGUGGGGAAAGUAUUAUGUUACGCCGUUCGGAUCUGCACUUCCAGUGGAAUUCUCGGGUGUCAAGG	1.17
GGGAGUUCUACAGUCCGACGAUCCUCAAGUCCUGUGCUACACAUCGUAUGUACCGAAUCGGAGGAAAAAAAGGUGGAAAGUAUUAUGUUACGCCGUUCGGAUCUGCACUUCCAUGGAAUUCUCGGGUGUCAAGG	-0.27

Series 2
Target: Prothrombin, mature alpha-thrombin (F2, Homo sapiens, UniProt P00734)
Method: aptamer microarray, sandwich
Form: DNA with 2'F-ANA
Medium: in vitro
Concentration: 200 nM
Notes: whole 15-mer aptamer, many near background
With: Cy3 exosite-II aptamer, 400 nM
Reading: higher = stronger binding
Sequence: GGTTGGTGTGGTTGG
Modification	mean fluorescence intensity
2'F-ANA at 1 15	227 a.u.
2'F-ANA at 2 3 9 11 12	988 a.u.
2'F-ANA at 2 4 6 7 8 12 13 15	351 a.u.
2'F-ANA at 1 4 11 15	107 a.u.
2'F-ANA at 2 4 6 7 8 9 10 13 14	61.1 a.u.
2'F-ANA at 2 3 6 9 11 12 14 15	348 a.u.
2'F-ANA at 1 7 14	56.4 a.u.
2'F-ANA at 2 3 5 6 9 10 11 12 13 14	56.3 a.u.

Series 3
Target: Protein C-ets-1 (ETS1, Homo sapiens, UniProt P14921, residues 1-441, full length assumed)
Sequence of UniProt P14921 (whole entry, looked up): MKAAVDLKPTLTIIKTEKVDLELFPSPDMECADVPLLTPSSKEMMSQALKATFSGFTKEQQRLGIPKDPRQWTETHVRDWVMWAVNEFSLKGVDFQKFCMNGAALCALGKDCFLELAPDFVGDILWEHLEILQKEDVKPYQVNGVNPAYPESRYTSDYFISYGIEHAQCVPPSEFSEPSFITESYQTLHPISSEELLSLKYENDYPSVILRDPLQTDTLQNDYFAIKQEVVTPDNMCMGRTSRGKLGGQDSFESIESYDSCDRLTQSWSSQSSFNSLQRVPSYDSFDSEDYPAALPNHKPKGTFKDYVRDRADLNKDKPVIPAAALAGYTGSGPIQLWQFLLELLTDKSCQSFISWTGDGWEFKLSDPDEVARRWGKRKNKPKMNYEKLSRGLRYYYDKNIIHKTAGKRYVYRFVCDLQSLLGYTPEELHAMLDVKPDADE
Method: protein-binding microarray
Form: double-stranded DNA, one strand shown
Medium: in vitro
Concentration: not given
Notes: k-mer, scored over probes, only values ≥0.25
Reading: higher = stronger binding
Sequence	E-score
CTTCCCTC	0.285
CCGGGGAG	0.276
GTAGCGGA	0.279
GATACGGA	0.356
CCGCCCCA	0.275

Mixed results
Substance	target	assay	system	setting	scale	quantity	result
PhoQ, residues 284 288 289 292 302 303 GANMMA	PhoP, residues 12 14 15 18 19 NFCKL (Escherichia coli, UniProt P23836)	Sort-seq, refers to: YFP reporter	E. coli	PhoQ-PhoP variant library, with: 10 µM Mg2+	relative to: high Mg2+ state, higher = stronger signaling	fold induction	0.786
